Measurements of several laboratories.
Parts stem from different laboratories: compare values within a part only. Changes are numbered by the printed parent chain.

Series 1
Target: RING finger protein unkempt homolog, zinc fingers 1-6, GST-SBP tag (UNK, Homo sapiens, UniProt Q9C0B0, residues 30-357)
Chain of UniProt Q9C0B0 (30-357, looked up): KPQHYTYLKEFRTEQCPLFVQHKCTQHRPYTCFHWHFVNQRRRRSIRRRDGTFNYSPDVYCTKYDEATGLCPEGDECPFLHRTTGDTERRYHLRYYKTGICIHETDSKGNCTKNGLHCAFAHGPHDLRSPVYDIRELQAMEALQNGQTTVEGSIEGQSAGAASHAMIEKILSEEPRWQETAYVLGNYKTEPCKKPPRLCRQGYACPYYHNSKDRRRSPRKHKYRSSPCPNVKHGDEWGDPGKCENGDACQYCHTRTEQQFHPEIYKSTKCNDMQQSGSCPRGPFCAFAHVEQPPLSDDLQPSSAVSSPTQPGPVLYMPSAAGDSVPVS
Technique: RNA Bind-n-Seq
Molecule type: RNA
Matrix: in vitro
Concentration: not given
Setting: RNA with constant flanks, human and mouse sites, ends assumed
Reference: input RNA pool
Reading: higher = stronger binding
Strand | bound/input enrichment
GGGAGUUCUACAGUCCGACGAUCAAAAACUUGGCCCUUAUGACACACAUCACAACUGAUAUGGAAGAUGGACCCAUUGUUAAAUUAGCCAGUAACUUGGGAGUAGAAGAUGUGAAUUUAUUAUGUGGGGAAGAGCUCUCUUACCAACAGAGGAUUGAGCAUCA | 0.401 ratio
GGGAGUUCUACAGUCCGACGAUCGUACCACCUGUCGCGGCGCGAGACCUCUGGUGAAAGAAAAGAUGUUGUCCCGGUUAAGAGUAGUUUCCACCACUUGUACUUUGGCAUGUCGACAUUUGCACAUAAAAGAAAAAGGCAAGCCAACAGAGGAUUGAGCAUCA | 0.161 ratio
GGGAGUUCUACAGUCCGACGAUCCCUGGUGCAGGAUUGCUUCCAAUACCGACCCCAAAUCCUUUGACUACUCUUGGUGUUUCACUUAGCAGUUUGGGAGCUAUACCAGCAGCAGCACUAGACCCCAACAUUGCAACACUUGGACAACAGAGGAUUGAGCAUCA | 0.184 ratio
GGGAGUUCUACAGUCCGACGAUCUUCGUGCAGUUUGCUUCACAGGAAAUAGCUGAAAAGGCUCUAAAGAAACACAAGGAAAGAAUAGGGCACAGGUAUAUUGAAAUAUUUAAGAGCAGUCGAGCUGAAGUUAGAACUCAUUAUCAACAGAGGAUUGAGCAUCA | 0.61 ratio
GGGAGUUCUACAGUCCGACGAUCAAUCAGGCAUUUGGAAUGAAUAACUCCUUAUCAAGUAACAUUUUUAAUGGAACAGAUGGCAGUGAAAAUGUGACAGGAUUGGACCUUUCAGAUUUCCCAGCGUUAGCUGACCGGAAUAGACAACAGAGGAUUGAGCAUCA | 0.324 ratio
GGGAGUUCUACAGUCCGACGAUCCUCCCCCUAACUGUGGCCCUACAAAUCCCUAGGCCAGACCUCACAGCAGUGCCCACAGGCAUGCCUUGUUUAGCCCUCCUCAAGGAAUUUUAAAAUUUUUAAUUACUUUUUUUUUUUUUGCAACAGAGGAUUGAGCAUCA | 8.85 ratio
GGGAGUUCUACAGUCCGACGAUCGCUUUUUACCUUCUAGCGUUUUUUUACUACCUAUACGGCAUGAUCUAUGUUCUGGUGAGCUCUUAGAACAACACAGAAGAAUCGGUCCAGUUAAGUGCAUGCAAAACGCCACCAAUGAAGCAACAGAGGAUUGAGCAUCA | 0.453 ratio
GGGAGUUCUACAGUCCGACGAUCGGAUUCCGGUUCCGGUGGGCCUCCAUCAGCAAGCUCCAGUGCUACGUGUCCCUGGCAUUUUAGGUGUCGGUUGGGUAGGCAGUCAUGGAUCAGGUAAUGCAGUUUGUUGAGCCAAGUCGGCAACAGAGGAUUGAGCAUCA | 0.293 ratio

Series 2
Target: Interferon regulatory factor 5, full length, phosphomimetic (IRF5, Homo sapiens, UniProt Q13568-2, residues 1-514, S451D/S453D/S456D/S462D)
Technique: protein-binding microarray
Molecule type: double-stranded DNA, one strand shown
Matrix: in vitro
Concentration: 940 nM top
Setting: 60-bp whole probe
Together with: salmon DNA 0.4 mg/ml
Reference: random background probes
Reading: higher = stronger binding
Shared flanks, not repeated: GCCTAGCAC … GTCTTGATTCGCTTGACGCTGCTG
Strand | fitted relative affinity
TGTCATTTTCTCTTATTCTAGTGCTAG | 2.39 z-score
TTAGGACTGGAGTATCGGTTAGTGCTA | 2.59 z-score
TTAGAACAGGGGACTGGATTAGTGCTA | 0.485 z-score
GACGGCCTGGGGTATCGGGACGTGCTA | 0.195 z-score
TTAGGTCTCCTACTGCATTAGTGCTAG | -0.046 z-score
TCATCTTGCAGATGTCGCACTGTGCTA | 0.0815 z-score

Series 3
Target: CCNB1, cyclin fold, Cln2 fusion (human)
Technique: yeast growth competition, sequencing
Matrix: yeast
Setting: weak parent motif
Reference: not given
Reading: higher = stronger binding
Starting sequence: GMNC docking peptide (human); KNAKRNLSSEFAN
Variant | normalised enrichment score
KTAKRNLSSEFAN [N2T] | 0.187
KNAERNLSSEFAN [K4E] | -0.2
KNAKRNLSSEFSN [A12S] | 0.0753
KNAPRNLSSEFAN [K4P] | 0.142
KNYKRNLSSEFAN [A3Y] | 0.226

Single results of other studies
Molecule | target | assay | test system | conditions | scale | measurement | value
PhoQ, residues 284 288 289 292 302 303 SSTLSG | PhoP, residues 12 14 15 18 19 HLGGL (Escherichia coli, UniProt P23836) | Sort-seq, refers to: YFP reporter | E. coli | PhoQ-PhoP variant library, together with: 10 µM Mg2+ | reference: high Mg2+ state, higher = stronger signaling | fold induction | 11.1
